Experimental data pooled from the literature.
A part holds a random share of what one study measured. Substitutions count along the parent as printed.

Block 1
Target: ABI1, truncated, D143A, DHFR fusion (Arabidopsis thaliana)
Technique: DHFR PCA, deep sequencing
Medium: yeast
Setting: methotrexate growth selection, single substitutions
With: (+)-ABA 0.032 µM
Relative to: wild-type fitted maximum
Direction: higher = stronger binding
Starting sequence: PYL1, truncated, DHFR fusion (Arabidopsis thaliana); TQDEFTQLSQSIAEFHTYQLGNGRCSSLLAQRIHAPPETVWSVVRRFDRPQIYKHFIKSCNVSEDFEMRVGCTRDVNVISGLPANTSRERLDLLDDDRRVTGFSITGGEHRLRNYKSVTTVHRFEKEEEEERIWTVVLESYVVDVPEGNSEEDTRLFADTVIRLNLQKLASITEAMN
Change	relative binding score
E67A	10%
R111A	2.08%
R88T	42.4%
M68W	-0.403%
H55T	12.1%
P50D	-1.12%
E14C	-1.09%
L93S	0.306%
F15C	-3.9%
S59M	-2.84%
A170P	-2.16%
G102C	-1.98%
E151P	41.4%
G108L	-3.73%
R49E	12.1%
G23T	0.94%
D97L	4.54%
M68P	1.38%
F157K	3.32%
V100G	-0.996%
M68K	-8.71%
W41C	0.401%
R88L	3.08%
N22G	21.5%
I57S	1.82%

Block 2
Target: Histone acetyltransferase KAT6A, both winged helices, GST fusion (KAT6A, Homo sapiens, UniProt Q92794, residues 1-181)
Technique: protein binding microarray
Form: double-stranded DNA, one strand shown
Medium: in vitro
Tested at: not given
Setting: 8-mer, flanks averaged, mean of 2 arrays, mostly near background
Relative to: not given
Direction: higher = stronger binding
Construct (chain): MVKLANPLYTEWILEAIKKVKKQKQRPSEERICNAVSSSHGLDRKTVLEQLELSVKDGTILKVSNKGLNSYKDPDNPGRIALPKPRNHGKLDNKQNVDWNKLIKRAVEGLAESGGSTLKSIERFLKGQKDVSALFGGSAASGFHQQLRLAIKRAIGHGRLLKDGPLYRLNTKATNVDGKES
Sequence	E-score
AGGACGAA	0.0142
ACGTCGCC	-0.0132
ATCCGACC	0.0909
CTCTGTAA	-0.0393
CCGATAAA	0.0257
ACACGATA	0.0296
CCTCCTAG	-0.148
CGTCGGAC	0.221
ATTAGAGC	-0.0213
AATACAGT	-0.167
CATGACTC	-0.0973
ACTCATAG	-0.181
CAATGGAC	-0.0357
CATCGAGA	-0.145
CTGACAGA	-0.155
ATCCTTAG	-0.146
CTCCATGA	-0.0276
CGCCTATC	0.0319
CAAAGACC	-0.0137
CGCTGACA	0.1
GGTAATAA	-0.00351
ATAGCTTC	-0.109
ACGACACA	-0.146
CCTTGACA	0.0587
ATTTACGG	0.2

Block 3
Target: RING finger protein unkempt homolog, zinc fingers 1-6, SBP tag (UNK, Homo sapiens, UniProt Q9C0B0, residues 30-357)
Sequence of UniProt Q9C0B0 (30-357, looked up): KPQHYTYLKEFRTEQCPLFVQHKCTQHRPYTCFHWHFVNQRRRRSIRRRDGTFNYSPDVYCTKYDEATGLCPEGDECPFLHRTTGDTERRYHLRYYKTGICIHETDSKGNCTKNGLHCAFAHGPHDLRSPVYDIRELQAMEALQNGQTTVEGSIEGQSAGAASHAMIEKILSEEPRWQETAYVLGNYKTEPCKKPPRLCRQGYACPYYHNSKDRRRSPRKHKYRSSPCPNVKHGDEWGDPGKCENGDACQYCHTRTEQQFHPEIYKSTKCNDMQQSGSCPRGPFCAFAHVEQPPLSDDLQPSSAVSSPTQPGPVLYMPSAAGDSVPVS
Technique: RNA Bind-n-Seq
Form: RNA
Medium: in vitro
Tested at: 100 nM
Setting: RNA with constant flanks, vertebrate orthologous sites, ends assumed
Relative to: input RNA pool
Direction: higher = stronger binding
Sequence	bound/input enrichment
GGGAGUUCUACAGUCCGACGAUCUCCUAUGUAGCAAUUAGAUCCCCGCCCCCACUAUUUCAUGCAGGAAAAGAAAUAUCCAAAUAGAUUCCUCACCCAUCUGAUUAUACUGCUCUGAGUUUACUGUCUAUUACUUUUUACAUACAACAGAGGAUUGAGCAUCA	3.79 ratio
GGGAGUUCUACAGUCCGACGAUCGGGGCGGGCUCUGUAGGGAGCUGCUGGCCAUUUGGCAGCACUUGACUUACGACCUUGACAUGAUAGAUAGGUUUGUGGUUUUUUAAUUUAAAGAUGUUAAGACUUAAUCCGCUAAAAUUUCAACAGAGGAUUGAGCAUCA	0.291 ratio
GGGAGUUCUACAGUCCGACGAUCCCUACAAUAAUGAAAACCUACAGGAAUUUUUUUAUUUUUCAUUAUCCCCUUAGGCAUAUUUAGGCUUUUCCCCUAGGCAGAUCAUUCUGAGUGUGCGAGUGUGUGUGCACAUGUUACAAACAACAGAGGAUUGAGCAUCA	0.941 ratio
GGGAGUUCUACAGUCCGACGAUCUGUCUUGGUUUCGGGUAGAGGGGAGGGAGGGGUAGGACAGUGUGGAAUCUCUAGGGUGUAUGGGUAGAUAGGCUACACGGUUAGUUCUAAUUGGGCCUUUAUGUUAAAAACCUCUAGGGGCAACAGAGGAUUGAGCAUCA	0.619 ratio
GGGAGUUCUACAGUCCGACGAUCAUGAAUAUAUUCACUCAGUUAAAAUUAUUUAGAUACAAAUUAUUGUUUAUGUUUUCUUUCAGCAAUCUCCUAUUUUUAUCCAUUUGAAAAUGCCAGUUUUGUGUGGUUUCUUAGCAUAUCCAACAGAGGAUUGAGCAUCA	0.938 ratio
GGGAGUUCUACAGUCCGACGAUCUCAUUGUACUGCAAAAAUUACCCUAGUUUUGAACUAGCCACAAUGAUAACUAGUCUGUGCUAGUAGGAUCAUUGACUAUUACCUUUUAAAUUACCUGCUUUGUCUGAUACCUGAAACCAACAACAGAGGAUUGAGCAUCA	1.96 ratio
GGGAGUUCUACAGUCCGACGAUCGUACUGCCCAUGCAAAUCCCACAACACUGAAUGCAAAGUAGCAAUUUCCAUAGUCACAGUUAGGUAGCUUUAGGGCAAUAUUGCCAUGGUUUUACUCAUGUGCAGGUUUUGAAAAUGUACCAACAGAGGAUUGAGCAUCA	1.63 ratio
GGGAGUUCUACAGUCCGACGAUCAAUCAAUAGAAUUAUAUAAUAGUAAAGUUGCUAUUGAAAGGAUAUCCAAGUAUGUGUUUGUAGUUACUAAAAAAAAACCAAUUAUAGCUGUUAUUGCCUUGUAUUUAUAGCCCUCGUUUCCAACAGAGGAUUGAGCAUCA	1.7 ratio
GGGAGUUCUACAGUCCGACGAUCUUUGUGGGGAUCGGGGGGUGGGAAGAAGAUGUAUGGAUGUUAUUGGCAUUUUUAAAUGUUCAGAGGUUUUUGUUUUGUUUUGUUUUGUUUCUUCUGUUUUGUUUUUUCUUCCCUUUAAUUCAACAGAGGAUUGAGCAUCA	0.701 ratio
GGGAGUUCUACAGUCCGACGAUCCAUGUCCUUGUUGCUGUGAUAUUUAAAAUAUCCACAGUACUCACUUUUUCCAAAUGAUUCUAGAAACUGCCUAGAAAUAUUUUUCUCUUACCUGUUAUUUAUCAAUUUUUCCCAGUAUUUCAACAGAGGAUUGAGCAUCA	1.29 ratio
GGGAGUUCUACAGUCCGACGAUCGUGAGCAGUGGGCACCGGACUGGAGCAAGGAGCAAGUCAAGCAAACCUCCAGUGAAACUGCUGCCAUCUGCACUAUCGUUAACCUGCUGUCACCUUUUUCAUAUAUAUAUAAAAUACUUACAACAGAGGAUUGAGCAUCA	0.131 ratio

Block 4
Target: CCNE2, cyclin fold, Cln2 fusion (human)
Technique: yeast growth competition, sequencing
Medium: yeast
Setting: strong parent motif
Relative to: not given
Direction: higher = stronger binding
Starting sequence: WEE1 docking peptide (human); HKTFRKLRLFDTP; partner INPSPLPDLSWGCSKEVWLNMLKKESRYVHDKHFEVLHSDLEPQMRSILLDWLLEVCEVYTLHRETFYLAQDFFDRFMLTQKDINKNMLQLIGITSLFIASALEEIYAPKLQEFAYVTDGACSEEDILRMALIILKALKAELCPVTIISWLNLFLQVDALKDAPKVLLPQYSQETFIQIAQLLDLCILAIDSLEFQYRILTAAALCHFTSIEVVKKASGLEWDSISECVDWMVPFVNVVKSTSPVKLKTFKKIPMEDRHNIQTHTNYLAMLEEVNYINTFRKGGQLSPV
Change	normalised enrichment score
D11L	0.975
L9E	0.728
H1R	0.6
P13H	0.212
T3G	1.54
R8K	1.44
F10M	0.174
L7Y	1.14
T12H	1.2
F10Q	0.01
P13F	0.56
F10V	-0.236
T12V	1.11
P13D	0.976
K2Q	1.07
L7C	1.72
L7F	1.08
P13L	1.27
D11Q	2.34
L7R	1.04
D11K	0.848
F4C	0.866

Block 5
Target: UBE2E1 UBC core domain (UniProt P51965)
Sequence of UniProt P51965 (whole entry, looked up): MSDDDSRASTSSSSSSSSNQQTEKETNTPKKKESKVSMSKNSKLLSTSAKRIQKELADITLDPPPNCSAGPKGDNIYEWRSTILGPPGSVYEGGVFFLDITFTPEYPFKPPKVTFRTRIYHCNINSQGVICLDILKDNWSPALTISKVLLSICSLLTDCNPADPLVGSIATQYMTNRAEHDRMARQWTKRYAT
Technique: yeast two-hybrid
Medium: yeast
Setting: mostly zero background
Relative to: not given
Direction: higher = stronger interaction
B1: TRIM72 RING domain (UniProt Q6ZMU5); chain APGLLHQELSCPLCLQLFDAPVTAECGHSFCRACLGRVAGEPAADGTVLCPCCQAPTRPQALST
B2: PHF21A RING domain (UniProt Q96BD5); chain SPTSTDGDIHEDFCSVCRKSGQLLMCDTCSRVYHLDCLDPPLKTIPKGMWICPRCQDQMLKKEEAIPW
B3: RC3H2 RING domain (UniProt Q9HBD1); chain QAAQWTEFLSCPICYNEFDENVHKPISLGCSHTVCKTCLNKLHRKACPFDQTAINTDIDVL
B4: RNF170 RING domain (UniProt Q96K19); chain TRQQFYTDMYCPICLHQASFPVETNCGHLFCGACIIAYWRYGSWLGAISCPICRQTVTLLLTVF
B5: ARK2C RING domain (UniProt Q6ZSG1); chain EGEESDTDEKCTICLSMLEDGEDVRRLPCMHLFHQLCVDQWLAMSKKCPICRVDIETQLGAD
B6: CUL9 RING domain (UniProt Q8IWT3); chain AQAVPVRPDHCPVCVSPLGCDDDLPSLCCMHYCCKSCWNEYLTTRIEQNLVLNCTCPIADCPAQPTGAFIR
B7: TRIM69 RING domain (UniProt Q86WT6); chain VIQDITMELHCPLCNDWFRDPLMLSCGHNFCEACIQDFWRLQAKETFCPECKMLCQYNNCTF
B8: IRF2BPL RING domain (UniProt Q9H1B7); chain SPMANSGPLCCTICHERLEDTHFVQCPSVPSHKFCFPCSRESIKAQGATGEVYCPSGEKCPLVGSNVP
Molecule	lacZ reporter activity
DDENSDNSNECVVCLSDLRDTLILPCRHLCLCTSCADTLRYQANNCPICRLPFRALLQIR (MGRN1 RING domain (UniProt O60291))	0
B1 (TRIM72 RING domain)	0
B2 (PHF21A RING domain)	0
B3 (RC3H2 RING domain)	0
EDEVSDNSAECVVCLSDVRDTLILPCRHLCLCNTCADTLRYQANNCPICRLPFRALLQIR (RNF157 RING domain (UniProt Q96PX1))	0
B4 (RNF170 RING domain)	0
B5 (ARK2C RING domain)	9470
B6 (CUL9 RING domain)	0
VTLSLTLPITCHICLGKVRQPVICINNHVFCSICIDLWLKNNSQCPACRVPITPENPCK (OBI1 RING domain (UniProt Q5W0B1))	0
FPEHFVKSISCQICEHILADPVETNCKHVFCRVCILRCLKVMGSYCPSCRYPCFPTDLES (RAG1 RING domain (UniProt P15918))	0
B7 (TRIM69 RING domain)	0
B8 (IRF2BPL RING domain)	0

Excerpt of the above (block 4):
Change	normalised enrichment score
P13D	0.976
P13L	1.27
L7Y	1.14
F10M	0.174
L9E	0.728
H1R	0.6
D11Q	2.34
T12H	1.2
D11K	0.848
L7C	1.72
P13H	0.212
F10Q	0.01
L7R	1.04
F4C	0.866
